Assay results from different studies.
Numbered parts are unrelated; each lists some results of a single study. “And” joins repeats or separate records; there may be more than shown.
Sequence of UniProt O43781 (whole entry, looked up): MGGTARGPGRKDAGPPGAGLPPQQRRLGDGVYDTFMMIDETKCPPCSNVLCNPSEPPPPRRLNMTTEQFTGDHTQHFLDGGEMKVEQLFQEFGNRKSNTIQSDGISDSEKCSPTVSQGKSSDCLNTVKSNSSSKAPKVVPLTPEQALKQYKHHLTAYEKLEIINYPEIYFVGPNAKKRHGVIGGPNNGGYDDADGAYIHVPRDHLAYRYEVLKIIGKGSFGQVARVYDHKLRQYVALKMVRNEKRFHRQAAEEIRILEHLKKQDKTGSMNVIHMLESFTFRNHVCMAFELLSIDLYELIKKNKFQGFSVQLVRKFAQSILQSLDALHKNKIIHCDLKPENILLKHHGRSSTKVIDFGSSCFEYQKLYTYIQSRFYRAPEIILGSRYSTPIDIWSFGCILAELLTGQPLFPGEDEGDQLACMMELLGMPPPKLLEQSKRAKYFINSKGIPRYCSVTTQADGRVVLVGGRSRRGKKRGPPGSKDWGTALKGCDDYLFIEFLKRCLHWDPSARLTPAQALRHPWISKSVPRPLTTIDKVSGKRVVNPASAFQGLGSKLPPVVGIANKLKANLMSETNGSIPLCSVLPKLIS
Sequence of UniProt P11802 (whole entry, looked up): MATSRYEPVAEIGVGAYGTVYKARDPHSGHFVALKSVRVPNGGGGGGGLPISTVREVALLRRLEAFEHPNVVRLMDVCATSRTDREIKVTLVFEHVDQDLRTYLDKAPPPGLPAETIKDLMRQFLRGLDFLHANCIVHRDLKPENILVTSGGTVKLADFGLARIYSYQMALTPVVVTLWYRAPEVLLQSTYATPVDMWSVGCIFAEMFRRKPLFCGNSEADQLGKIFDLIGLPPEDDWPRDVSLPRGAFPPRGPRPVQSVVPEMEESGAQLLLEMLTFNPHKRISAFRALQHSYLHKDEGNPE
Sequence of UniProt Q9H2X6 (whole entry, looked up): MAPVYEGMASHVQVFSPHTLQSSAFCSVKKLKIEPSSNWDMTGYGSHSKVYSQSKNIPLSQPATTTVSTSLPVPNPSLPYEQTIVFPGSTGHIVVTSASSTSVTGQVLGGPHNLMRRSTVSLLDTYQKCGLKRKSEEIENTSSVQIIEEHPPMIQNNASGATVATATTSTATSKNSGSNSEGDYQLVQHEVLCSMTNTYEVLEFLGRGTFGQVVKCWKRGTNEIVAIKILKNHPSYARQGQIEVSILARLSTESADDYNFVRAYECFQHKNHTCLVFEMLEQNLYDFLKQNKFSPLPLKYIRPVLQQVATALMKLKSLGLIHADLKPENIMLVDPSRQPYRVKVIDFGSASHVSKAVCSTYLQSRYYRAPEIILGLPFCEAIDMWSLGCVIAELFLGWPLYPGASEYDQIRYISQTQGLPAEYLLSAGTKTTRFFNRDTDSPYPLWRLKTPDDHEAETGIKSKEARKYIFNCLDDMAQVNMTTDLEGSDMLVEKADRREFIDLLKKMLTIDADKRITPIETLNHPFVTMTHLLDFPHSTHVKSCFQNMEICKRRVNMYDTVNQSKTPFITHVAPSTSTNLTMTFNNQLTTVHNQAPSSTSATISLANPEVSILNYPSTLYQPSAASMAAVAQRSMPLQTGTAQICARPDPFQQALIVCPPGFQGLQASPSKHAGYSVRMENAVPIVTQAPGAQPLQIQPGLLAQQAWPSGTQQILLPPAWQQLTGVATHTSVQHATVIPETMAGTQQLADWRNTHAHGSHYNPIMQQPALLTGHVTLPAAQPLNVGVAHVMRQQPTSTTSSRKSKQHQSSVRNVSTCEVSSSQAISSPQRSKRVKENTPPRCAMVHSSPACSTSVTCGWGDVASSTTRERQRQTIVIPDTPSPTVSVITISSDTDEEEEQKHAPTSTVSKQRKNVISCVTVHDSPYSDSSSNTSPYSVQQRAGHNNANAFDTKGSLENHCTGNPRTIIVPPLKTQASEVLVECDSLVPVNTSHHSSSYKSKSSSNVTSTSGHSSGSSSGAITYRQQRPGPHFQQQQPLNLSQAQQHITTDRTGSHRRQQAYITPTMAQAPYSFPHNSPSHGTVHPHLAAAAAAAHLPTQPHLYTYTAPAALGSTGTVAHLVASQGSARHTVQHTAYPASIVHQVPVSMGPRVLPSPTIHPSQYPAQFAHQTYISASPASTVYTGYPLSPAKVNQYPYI
Sequence of UniProt P22612 (whole entry, looked up): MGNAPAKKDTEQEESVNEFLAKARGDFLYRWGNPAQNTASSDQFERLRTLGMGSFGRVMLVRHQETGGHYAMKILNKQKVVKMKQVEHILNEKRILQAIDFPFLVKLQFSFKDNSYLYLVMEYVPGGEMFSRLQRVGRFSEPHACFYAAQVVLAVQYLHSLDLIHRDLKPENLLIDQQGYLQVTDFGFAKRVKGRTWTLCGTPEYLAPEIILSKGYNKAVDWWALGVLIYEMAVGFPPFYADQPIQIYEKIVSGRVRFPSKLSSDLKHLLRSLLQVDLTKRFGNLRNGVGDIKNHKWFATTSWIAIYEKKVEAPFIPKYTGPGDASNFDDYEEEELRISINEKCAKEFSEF

Sample 1
Target: DNA polymerase theta, ATPase domain (POLQ, Homo sapiens, UniProt O75417)
Sequence of UniProt O75417 (whole entry, unmodified, looked up): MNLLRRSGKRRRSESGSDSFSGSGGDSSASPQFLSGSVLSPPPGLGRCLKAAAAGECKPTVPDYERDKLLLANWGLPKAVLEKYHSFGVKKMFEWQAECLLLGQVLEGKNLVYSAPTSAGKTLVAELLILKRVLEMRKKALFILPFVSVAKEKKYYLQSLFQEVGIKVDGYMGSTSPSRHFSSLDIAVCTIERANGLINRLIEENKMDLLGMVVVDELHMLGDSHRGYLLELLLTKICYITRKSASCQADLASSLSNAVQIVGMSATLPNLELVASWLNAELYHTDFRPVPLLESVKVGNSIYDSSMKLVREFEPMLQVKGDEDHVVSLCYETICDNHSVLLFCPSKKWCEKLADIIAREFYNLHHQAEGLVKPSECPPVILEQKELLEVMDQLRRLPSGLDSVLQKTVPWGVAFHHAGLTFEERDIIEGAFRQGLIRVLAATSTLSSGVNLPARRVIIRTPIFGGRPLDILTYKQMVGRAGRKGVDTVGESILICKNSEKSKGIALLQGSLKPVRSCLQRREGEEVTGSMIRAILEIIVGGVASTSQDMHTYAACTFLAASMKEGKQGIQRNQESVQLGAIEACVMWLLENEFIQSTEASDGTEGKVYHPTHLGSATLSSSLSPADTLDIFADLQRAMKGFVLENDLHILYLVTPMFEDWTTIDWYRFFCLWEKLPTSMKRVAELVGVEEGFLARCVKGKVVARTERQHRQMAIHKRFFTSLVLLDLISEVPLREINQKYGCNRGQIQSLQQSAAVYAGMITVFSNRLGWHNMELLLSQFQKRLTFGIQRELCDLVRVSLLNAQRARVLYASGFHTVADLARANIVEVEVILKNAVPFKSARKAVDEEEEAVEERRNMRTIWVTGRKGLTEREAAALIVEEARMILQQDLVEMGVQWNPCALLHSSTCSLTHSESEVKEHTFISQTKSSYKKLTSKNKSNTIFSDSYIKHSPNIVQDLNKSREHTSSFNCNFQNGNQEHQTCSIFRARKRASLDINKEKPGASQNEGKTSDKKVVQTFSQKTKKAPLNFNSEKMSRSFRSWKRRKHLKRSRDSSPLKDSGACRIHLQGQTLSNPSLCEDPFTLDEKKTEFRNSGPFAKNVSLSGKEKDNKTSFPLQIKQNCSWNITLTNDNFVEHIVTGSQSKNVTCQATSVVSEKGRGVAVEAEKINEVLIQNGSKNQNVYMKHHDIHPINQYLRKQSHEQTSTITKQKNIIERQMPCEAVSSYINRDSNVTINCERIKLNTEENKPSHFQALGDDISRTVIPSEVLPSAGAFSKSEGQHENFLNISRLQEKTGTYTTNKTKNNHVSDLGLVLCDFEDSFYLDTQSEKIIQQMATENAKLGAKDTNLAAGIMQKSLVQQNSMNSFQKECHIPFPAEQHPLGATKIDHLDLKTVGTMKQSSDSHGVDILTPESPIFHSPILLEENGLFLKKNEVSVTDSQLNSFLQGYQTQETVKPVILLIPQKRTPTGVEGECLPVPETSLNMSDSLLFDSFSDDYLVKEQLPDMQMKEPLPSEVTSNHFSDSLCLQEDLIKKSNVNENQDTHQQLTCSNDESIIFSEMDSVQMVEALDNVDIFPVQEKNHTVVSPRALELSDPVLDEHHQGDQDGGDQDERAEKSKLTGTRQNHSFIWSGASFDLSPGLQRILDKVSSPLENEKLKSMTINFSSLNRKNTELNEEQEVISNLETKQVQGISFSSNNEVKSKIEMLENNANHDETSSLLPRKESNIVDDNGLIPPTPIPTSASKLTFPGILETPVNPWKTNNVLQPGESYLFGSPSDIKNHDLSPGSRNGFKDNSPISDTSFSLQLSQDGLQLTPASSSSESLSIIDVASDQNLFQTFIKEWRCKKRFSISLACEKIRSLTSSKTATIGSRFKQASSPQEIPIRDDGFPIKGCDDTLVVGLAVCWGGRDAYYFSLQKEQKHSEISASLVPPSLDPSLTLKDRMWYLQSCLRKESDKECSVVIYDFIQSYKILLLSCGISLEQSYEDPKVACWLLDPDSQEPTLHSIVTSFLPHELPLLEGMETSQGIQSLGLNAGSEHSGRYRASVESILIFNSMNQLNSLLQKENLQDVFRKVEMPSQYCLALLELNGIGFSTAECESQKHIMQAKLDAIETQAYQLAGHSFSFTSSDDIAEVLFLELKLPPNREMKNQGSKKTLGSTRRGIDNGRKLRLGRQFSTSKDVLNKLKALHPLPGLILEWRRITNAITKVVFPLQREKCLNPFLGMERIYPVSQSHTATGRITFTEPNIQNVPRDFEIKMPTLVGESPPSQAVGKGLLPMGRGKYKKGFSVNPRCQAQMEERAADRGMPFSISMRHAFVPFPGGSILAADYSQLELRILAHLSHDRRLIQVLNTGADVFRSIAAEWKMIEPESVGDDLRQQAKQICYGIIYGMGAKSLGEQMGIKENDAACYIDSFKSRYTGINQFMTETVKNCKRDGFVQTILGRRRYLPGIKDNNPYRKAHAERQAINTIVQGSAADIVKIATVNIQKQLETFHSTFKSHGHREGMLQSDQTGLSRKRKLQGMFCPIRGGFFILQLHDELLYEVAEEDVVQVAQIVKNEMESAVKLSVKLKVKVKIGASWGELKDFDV
Effect on: enzyme activity
Mode: inhibitor
Tested at: 77 µM
Baseline: untreated
Quantity: remaining activity
c1nc2c(NC3CCCCC3)nc(Nc3ccc(N4CCOCC4)cc3)nc2[nH]1: 100%
CC(C)(C)C(=O)OCOC(=O)[C@@H]1N2C(=O)[C@@H](/N=C/N3CCCCCC3)[C@H]2SC1(C)C: 99.7%
COc1cc(NC(=O)c2ccc(-c3ccc(Cl)cc3)o2)cc(OC)c1: 96.9%
CC(C)(Sc1cc(C(C)(C)C)c(O)c(C(C)(C)C)c1)Sc1cc(C(C)(C)C)c(O)c(C(C)(C)C)c1: 99.1%
Nc1nc(=S)c2ncn([C@@H]3O[C@H](CO)[C@@H](O)[C@H]3O)c2[nH]1: 101%
CC(C)C[C@H]1C(=O)N2CCC[C@H]2[C@]2(O)O[C@](NC(=O)[C@@H]3C=C4c5cccc6[nH]c(Br)c(c56)CC4N(C)C3)(C(C)C)C(=O)N12 (stereo partly drawn): 94.7%
Cn1c(=O)n(C(C)(C)C#N)c2c3cc(-c4cnc5ccccc5c4)ccc3ncc21: 102% and 104% and 105%
CC(=O)/C(C)=N/O: 100%

Sample 2
Compound: CN(C)S(=O)(=O)c1ccc2c(c1)/C(=C/c1cc3c([nH]1)CCCC3)C(=O)N2
Effect on: enzyme activity
Mode: inhibitor
Tested at: 0.5 µM
Baseline: control
Quantity: remaining activity
STK16 (Homo sapiens, UniProt O75716): 104%
WNK3 (Homo sapiens, UniProt Q9BYP7): 96.5%
PRKACG (Homo sapiens, UniProt P22612): 114%
EPHB1 (Homo sapiens, UniProt P54762): 82.8%
MAPKAPK3 (Homo sapiens, UniProt Q16644): 100%
RPS6KA5 (Homo sapiens, UniProt O75582): 106%
SRMS (Homo sapiens, UniProt Q9H3Y6): 104%
Cyclin-dependent kinase 6, with cyclin D3 (CDK6, Homo sapiens, UniProt Q00534): 84.2%
CAMK2B (Homo sapiens, UniProt Q13554): 70%
BLK (Homo sapiens, UniProt P51451): 13.9%
HIPK2 (Homo sapiens, UniProt Q9H2X6): 98.2%
HIPK4 (Homo sapiens, UniProt Q8NE63): 98.8%
AXL (Homo sapiens, UniProt P30530): 39.7%
Cyclin-dependent kinase 1, with cyclin B (CDK1, Homo sapiens, UniProt P06493): 75.4%
EPHA4 (Homo sapiens, UniProt P54764): 91.3%
RPS6KA6 (Homo sapiens, UniProt Q9UK32): 67.4%
DYRK3 (Homo sapiens, UniProt O43781): 99.1%
Cyclin-dependent kinase 4, with cyclin D3 (CDK4, Homo sapiens, UniProt P11802): 99.1%
PHKG1 (Homo sapiens, UniProt Q16816): 72.4%
EPHB4 (Homo sapiens, UniProt P54760): 85.8%
MAP4K4 (Homo sapiens, UniProt O95819): 46.1%
TSSK2 (Homo sapiens, UniProt Q96PF2): 91.8%
ABL1 (Homo sapiens, UniProt P00519): 57.3%

Sample 3
SMILES: CO[C@@H](C)c1c(Nc2ccc([C@H](N(C)C(=O)C3CCS(=O)(=O)CC3)C(F)(F)F)cc2)cnc2cc(Cl)nn12
Tested at: 10 µM
Quantity: inhibition
ADRB3 (Homo sapiens, UniProt P13945); ligand displacement: 15.4%
HTR1D (Homo sapiens, UniProt P28221); cell-free assay: -2.45%
ADRA2B (Homo sapiens, UniProt P18089); ligand displacement: 0.32%
HTR1E (Homo sapiens, UniProt P28566); cell-free assay: -13.1%
HRH3 (Homo sapiens, UniProt Q9Y5N1); ligand displacement: -5.74%
ADRA1A (Homo sapiens, UniProt P35348); ligand displacement: -7.59%
DRD2 (Homo sapiens, UniProt P14416); ligand displacement: 4.1%
DRD3 (Homo sapiens, UniProt P35462); ligand displacement: -4.43%
HRH2 (Homo sapiens, UniProt P25021); ligand displacement: -9.88%
DRD1 (Homo sapiens, UniProt P21728); ligand displacement: 23.7%
CHRM4 (Homo sapiens, UniProt P08173); ligand displacement: 21.3%
HTR1B (Homo sapiens, UniProt P28222); binding, radioligand binding: 12.5%

Further values, each from its own experiment
c1ccc2c(-c3nn4c(-c5ccncc5)nnc4s3)c[nH]c2c1
GCase activity (Gaucher fibroblasts L444P/L444P; 4-MUG hydrolysis, cell lysate; 1 µM; baseline: DMSO): 165%

CC(C)n1cnc(-c2ccc(F)cc2)c1-c1ncc(C(=O)Nc2ccc(N3CCN(C)CC3)cc2)[nH]1
grade 5 ECG high voltage (human, idiopathic pulmonary fibrosis; 60 mg once daily, trial, treatment-emergent): 0%

O=C(COc1ccc(Cl)cc1)NC1CCC(NC(=O)COc2ccc(Cl)cc2)CC1 (stereo not drawn)
GCase activity (non-Gaucher fibroblasts; 4-MUG hydrolysis, cell lysate; concentration not given; baseline: DMSO): 116% and 110%

Cc1cccc(/C=N/Nc2cc(N3CCOCC3)nc(OCCc3ccccn3)n2)c1
GCase activity (L444P/L444P Gaucher fibroblasts; 4-MUG hydrolysis in lysate; 0.5 µM, 72 h, added: ISRIB; baseline: vehicle): 236% and 185% and 186% and 190% and 204% and 167% and 196%

Ic1ccc(Nc2nc(NCCN3CCOCC3)nc(N3CCOCC3)n2)cc1
GCase activity (Gaucher fibroblasts L444P/L444P; 4-MUG hydrolysis, cell lysate; 5 µM; baseline: DMSO): 189% and 193% and 156%
